{"data": "Measurements pooled from the literature", "note": "Every numbered part comes from another study and shows a few of its results, in no order. Several values in a cell are separate wells, animals, samples, runs or records.", "UniProt Q9HBY8, sequence (whole entry, looked up)": "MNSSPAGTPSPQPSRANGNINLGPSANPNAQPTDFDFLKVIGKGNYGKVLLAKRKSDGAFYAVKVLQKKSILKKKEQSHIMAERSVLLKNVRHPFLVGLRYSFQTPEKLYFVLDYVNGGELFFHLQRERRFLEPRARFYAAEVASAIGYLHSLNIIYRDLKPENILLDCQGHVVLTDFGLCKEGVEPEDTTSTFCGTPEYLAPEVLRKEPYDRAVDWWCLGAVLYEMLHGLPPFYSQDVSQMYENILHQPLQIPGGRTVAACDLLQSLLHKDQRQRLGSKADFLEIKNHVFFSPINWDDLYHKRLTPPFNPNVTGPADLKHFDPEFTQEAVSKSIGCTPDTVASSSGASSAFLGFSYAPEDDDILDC", "UniProt P49760, sequence (whole entry, looked up)": "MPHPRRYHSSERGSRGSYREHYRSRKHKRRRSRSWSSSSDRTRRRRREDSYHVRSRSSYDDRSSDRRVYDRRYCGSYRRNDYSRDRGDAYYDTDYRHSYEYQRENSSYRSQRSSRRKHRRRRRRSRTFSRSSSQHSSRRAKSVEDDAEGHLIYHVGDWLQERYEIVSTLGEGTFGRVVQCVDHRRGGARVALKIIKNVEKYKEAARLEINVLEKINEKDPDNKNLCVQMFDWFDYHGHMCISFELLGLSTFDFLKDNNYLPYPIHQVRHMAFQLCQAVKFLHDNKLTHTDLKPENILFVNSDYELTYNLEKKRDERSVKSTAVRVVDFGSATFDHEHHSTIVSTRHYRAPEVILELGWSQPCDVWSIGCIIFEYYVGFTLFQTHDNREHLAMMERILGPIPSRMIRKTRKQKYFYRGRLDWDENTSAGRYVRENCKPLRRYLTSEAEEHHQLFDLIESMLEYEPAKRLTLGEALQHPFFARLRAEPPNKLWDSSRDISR", "UniProt P17948, sequence (whole entry, looked up)": "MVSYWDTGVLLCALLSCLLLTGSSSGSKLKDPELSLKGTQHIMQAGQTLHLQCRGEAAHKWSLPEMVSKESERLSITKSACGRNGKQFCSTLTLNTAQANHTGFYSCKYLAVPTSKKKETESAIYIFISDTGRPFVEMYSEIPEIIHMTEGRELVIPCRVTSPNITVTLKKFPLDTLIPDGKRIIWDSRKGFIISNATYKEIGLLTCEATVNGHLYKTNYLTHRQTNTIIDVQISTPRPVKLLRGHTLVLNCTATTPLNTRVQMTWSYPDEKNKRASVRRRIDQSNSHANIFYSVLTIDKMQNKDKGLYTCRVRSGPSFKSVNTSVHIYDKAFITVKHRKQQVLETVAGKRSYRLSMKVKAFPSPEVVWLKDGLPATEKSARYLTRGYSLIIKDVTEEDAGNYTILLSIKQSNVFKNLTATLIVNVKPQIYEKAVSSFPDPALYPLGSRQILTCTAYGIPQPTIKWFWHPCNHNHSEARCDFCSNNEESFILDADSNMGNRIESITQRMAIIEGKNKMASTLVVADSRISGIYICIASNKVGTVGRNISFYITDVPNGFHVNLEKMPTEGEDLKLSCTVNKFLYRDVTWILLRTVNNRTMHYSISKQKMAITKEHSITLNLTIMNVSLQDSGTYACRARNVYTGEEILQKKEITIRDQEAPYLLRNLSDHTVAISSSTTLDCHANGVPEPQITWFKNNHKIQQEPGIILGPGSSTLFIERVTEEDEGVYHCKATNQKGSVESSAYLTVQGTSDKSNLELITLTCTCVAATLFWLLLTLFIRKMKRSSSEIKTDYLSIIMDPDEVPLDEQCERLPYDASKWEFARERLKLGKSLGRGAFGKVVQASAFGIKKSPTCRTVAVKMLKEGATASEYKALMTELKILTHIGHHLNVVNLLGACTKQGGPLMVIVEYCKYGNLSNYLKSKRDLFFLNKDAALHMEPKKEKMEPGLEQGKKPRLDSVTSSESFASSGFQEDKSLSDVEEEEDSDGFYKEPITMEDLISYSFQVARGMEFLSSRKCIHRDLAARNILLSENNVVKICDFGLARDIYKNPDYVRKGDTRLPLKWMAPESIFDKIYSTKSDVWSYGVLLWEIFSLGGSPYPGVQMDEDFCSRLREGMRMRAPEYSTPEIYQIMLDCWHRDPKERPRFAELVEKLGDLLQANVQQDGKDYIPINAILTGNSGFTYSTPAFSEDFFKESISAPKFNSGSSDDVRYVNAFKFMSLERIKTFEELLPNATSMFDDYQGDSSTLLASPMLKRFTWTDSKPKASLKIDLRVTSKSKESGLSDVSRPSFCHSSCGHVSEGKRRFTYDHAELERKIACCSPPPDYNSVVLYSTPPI", "UniProt Q14012, sequence (whole entry, looked up)": "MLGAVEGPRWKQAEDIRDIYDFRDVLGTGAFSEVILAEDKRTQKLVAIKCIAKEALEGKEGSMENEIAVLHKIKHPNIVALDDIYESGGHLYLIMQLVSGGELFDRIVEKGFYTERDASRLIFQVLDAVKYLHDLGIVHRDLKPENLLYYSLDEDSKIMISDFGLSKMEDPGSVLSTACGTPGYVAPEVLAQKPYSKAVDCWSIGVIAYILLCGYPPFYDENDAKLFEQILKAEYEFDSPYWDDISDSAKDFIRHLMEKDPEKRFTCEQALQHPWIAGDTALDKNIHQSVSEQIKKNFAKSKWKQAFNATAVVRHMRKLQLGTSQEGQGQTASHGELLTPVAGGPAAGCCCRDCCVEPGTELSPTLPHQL", "UniProt P09619, sequence (whole entry, looked up)": "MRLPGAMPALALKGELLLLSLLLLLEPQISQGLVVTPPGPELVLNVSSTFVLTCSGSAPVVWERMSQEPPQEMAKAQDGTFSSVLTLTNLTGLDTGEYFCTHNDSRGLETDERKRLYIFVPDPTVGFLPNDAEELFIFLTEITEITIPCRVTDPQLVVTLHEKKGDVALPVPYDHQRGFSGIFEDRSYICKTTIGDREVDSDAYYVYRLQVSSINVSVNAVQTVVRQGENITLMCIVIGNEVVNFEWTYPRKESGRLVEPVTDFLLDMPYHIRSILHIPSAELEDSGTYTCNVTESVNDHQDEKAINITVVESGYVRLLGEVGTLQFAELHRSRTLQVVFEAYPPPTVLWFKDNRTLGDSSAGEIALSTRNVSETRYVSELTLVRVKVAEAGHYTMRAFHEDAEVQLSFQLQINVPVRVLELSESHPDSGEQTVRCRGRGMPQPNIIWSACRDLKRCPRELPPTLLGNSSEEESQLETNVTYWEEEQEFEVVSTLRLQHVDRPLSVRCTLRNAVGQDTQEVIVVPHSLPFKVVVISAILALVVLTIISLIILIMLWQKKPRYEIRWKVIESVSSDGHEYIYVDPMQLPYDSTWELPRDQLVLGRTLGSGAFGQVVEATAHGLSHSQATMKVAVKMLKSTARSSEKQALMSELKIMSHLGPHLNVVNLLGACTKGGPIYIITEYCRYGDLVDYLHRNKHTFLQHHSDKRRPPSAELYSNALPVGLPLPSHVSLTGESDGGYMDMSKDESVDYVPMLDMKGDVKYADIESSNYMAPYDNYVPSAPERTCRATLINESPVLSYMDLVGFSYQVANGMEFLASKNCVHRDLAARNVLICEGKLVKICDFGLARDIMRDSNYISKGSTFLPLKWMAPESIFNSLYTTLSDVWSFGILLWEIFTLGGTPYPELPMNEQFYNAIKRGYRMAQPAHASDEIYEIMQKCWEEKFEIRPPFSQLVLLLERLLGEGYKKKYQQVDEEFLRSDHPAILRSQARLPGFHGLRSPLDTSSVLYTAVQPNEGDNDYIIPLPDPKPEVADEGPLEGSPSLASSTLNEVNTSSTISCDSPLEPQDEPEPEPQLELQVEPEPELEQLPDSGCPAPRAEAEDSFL", "UniProt O14965, sequence (whole entry, looked up)": "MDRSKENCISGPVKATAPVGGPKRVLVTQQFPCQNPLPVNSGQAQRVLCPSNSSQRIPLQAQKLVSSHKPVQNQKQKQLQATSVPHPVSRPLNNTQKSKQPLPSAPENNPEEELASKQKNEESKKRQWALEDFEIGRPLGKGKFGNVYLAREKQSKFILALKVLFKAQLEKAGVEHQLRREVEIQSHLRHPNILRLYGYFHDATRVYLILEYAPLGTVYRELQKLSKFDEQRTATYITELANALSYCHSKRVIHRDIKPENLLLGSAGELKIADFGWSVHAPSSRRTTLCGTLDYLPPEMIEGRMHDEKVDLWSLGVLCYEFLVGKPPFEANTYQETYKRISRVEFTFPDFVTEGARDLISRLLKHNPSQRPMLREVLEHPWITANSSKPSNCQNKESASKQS", "UniProt Q05513, sequence (whole entry, looked up)": "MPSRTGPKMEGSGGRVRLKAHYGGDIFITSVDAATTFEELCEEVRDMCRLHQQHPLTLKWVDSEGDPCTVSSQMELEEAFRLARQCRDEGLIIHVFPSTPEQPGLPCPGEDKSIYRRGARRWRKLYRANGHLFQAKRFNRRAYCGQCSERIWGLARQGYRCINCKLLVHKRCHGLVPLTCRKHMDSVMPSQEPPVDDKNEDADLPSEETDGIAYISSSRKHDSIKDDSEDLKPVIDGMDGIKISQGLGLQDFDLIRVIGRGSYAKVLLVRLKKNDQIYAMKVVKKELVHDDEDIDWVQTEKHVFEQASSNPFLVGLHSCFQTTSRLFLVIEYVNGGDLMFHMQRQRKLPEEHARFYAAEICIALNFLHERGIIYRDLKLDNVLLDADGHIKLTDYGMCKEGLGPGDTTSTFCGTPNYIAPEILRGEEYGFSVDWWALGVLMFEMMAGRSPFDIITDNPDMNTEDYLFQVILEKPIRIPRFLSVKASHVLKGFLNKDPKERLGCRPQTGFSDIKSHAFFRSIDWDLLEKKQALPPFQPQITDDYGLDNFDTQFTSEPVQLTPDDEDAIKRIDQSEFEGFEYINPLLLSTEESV", "UniProt Q96GD4, sequence (whole entry, looked up)": "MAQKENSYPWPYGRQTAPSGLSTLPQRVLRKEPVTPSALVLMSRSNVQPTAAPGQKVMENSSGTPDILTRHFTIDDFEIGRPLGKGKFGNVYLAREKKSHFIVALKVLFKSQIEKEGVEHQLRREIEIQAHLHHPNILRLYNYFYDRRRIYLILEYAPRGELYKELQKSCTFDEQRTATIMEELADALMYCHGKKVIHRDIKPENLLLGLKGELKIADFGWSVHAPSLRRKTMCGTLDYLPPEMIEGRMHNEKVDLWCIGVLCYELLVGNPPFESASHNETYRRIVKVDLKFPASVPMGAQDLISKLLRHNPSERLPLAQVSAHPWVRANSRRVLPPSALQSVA"}
{"data": "Study 1", "SMILES": "NC(=O)c1cccc(-c2cc(Nc3ccc(OC(F)(F)F)cc3)ncn2)c1", "effect on": "enzyme activity", "action": "inhibitor", "concentration": "0.5 µM", "reference": "control"}
{"target": "Tyrosine-protein kinase Tec (TEC, Homo sapiens, UniProt P42680)", "remaining activity": "139%"}
{"target": "Serine/threonine-protein kinase PAK 6 (PAK6, Homo sapiens, UniProt Q9NQU5)", "remaining activity": "102%"}
{"target": "Vascular endothelial growth factor receptor 1 (FLT1, Homo sapiens, UniProt P17948)", "remaining activity": "98.4%"}
{"target": "Tyrosine-protein kinase JAK1 (JAK1, Homo sapiens, UniProt P23458)", "remaining activity": "98.9%"}
{"target": "Protein kinase C theta type (PRKCQ, Homo sapiens, UniProt Q04759)", "remaining activity": "104%"}
{"target": "Calcium/calmodulin-dependent protein kinase type 1 (CAMK1, Homo sapiens, UniProt Q14012)", "remaining activity": "97.5%"}
{"target": "Calcium/calmodulin-dependent protein kinase kinase 1 (CAMKK1, Homo sapiens, UniProt Q8N5S9)", "remaining activity": "103%"}
{"target": "Cyclin-dependent kinase 2, with cyclin E (CDK2, Homo sapiens, UniProt P24941)", "remaining activity": "86.6%"}
{"target": "Dual specificity protein kinase CLK1 (CLK1, Homo sapiens, UniProt P49759)", "remaining activity": "115%"}
{"target": "Mitogen-activated protein kinase kinase kinase 20 (MAP3K20, Homo sapiens, UniProt Q9NYL2)", "remaining activity": "102%"}
{"target": "Serine/threonine-protein kinase Sgk2 (SGK2, Homo sapiens, UniProt Q9HBY8)", "remaining activity": "116%"}
{"target": "Ribosomal protein S6 kinase alpha-3 (RPS6KA3, Homo sapiens, UniProt P51812)", "remaining activity": "101%"}
{"target": "Casein kinase I isoform epsilon (CSNK1E, Homo sapiens, UniProt P49674)", "remaining activity": "103%"}
{"target": "SRSF protein kinase 1 (SRPK1, Homo sapiens, UniProt Q96SB4)", "remaining activity": "98%"}
{"target": "Insulin-like growth factor 1 receptor (IGF1R, Homo sapiens, UniProt P08069)", "remaining activity": "91%"}
{"target": "Casein kinase I isoform delta (CSNK1D, Homo sapiens, UniProt P48730)", "remaining activity": "99.1%"}
{"target": "Dual specificity protein kinase CLK2 (CLK2, Homo sapiens, UniProt P49760)", "remaining activity": "93.1%"}
{"target": "Ephrin type-A receptor 2 (EPHA2, Homo sapiens, UniProt P29317)", "remaining activity": "94.9%"}
{"target": "Protein kinase C zeta type (PRKCZ, Homo sapiens, UniProt Q05513)", "remaining activity": "100%"}
{"target": "Serine/threonine-protein kinase SIK2 (SIK2, Homo sapiens, UniProt Q9H0K1)", "remaining activity": "108%"}
{"data": "Study 2", "SMILES": "C[C@@H]1CN(c2ccc(-c3cc(C(=O)NCCOCCOCCOCCOCCNC(=O)Cn4cc(-c5[nH]cc(C(=O)N[C@@H](CC(N)=O)c6ccc(F)c(Cl)c6)c5-c5ccc(Cl)cc5F)cn4)ccc3F)cc2NC(=O)c2c[nH]c(=O)cc2C(F)(F)F)C[C@H](C)N1C", "cell line": "MV4-11 expressing HiBiT-WDR5", "technique": "ATPlite", "matrix": "RPMI with 10% FBS", "time": "24 h"}
{"concentration": "3800 nM", "viability": "101% and 109% and 78.1%"}
{"concentration": "88.1 nM", "viability": "90.7% and 111% and 93.7%"}
{"concentration": "5.15 nM", "viability": "80.7% and 134% and 104%"}
{"concentration": "34.2 nM", "viability": "100% and 94.2% and 76.2%"}
{"concentration": "2 nM", "viability": "145% and 92.5% and 108%"}
{"data": "Study 3", "SMILES": "CN(C)C(=O)Cn1cc(-c2nc(C3(c4ccc(-c5cnc(N)nc5)cc4)CC3)no2)cn1", "concentration": "1 µM"}
{"target": "Aurora kinase B (AURKB, Homo sapiens, UniProt Q96GD4)", "effect on": "cell-free assay", "technique": "competition with immobilised ligand", "remaining binding": "41%"}
{"target": "Receptor-type tyrosine-protein kinase FLT3 (FLT3, Homo sapiens, UniProt P36888, D835Y)", "effect on": "cell-free assay", "technique": "competition with immobilised ligand", "remaining binding": "100%"}
{"target": "Platelet-derived growth factor receptor beta (PDGFRB, Homo sapiens, UniProt P09619)", "effect on": "cell-free assay", "technique": "competition with immobilised ligand", "remaining binding": "94%"}
{"target": "Tyrosine-protein kinase ABL1, phosphorylated (ABL1, Homo sapiens, UniProt P00519, Y253F)", "effect on": "cell-free assay", "technique": "competition with immobilised ligand", "remaining binding": "98%"}
{"target": "Calcium/calmodulin-dependent protein kinase type II subunit beta (CAMK2B, Homo sapiens, UniProt Q13554)", "effect on": "cell-free assay", "technique": "competition with immobilised ligand", "remaining binding": "94%"}
{"target": "Epidermal growth factor receptor (EGFR, Homo sapiens, UniProt P00533, L858R/T790M)", "effect on": "cell-free assay", "technique": "competition with immobilised ligand", "remaining binding": "97%"}
{"target": "Aurora kinase A (AURKA, Homo sapiens, UniProt O14965)", "effect on": "cell-free assay", "technique": "competition with immobilised ligand", "remaining binding": "82%"}
{"target": "Wee1-like protein kinase 2 (WEE2, Homo sapiens, UniProt P0C1S8)", "effect on": "cell-free assay", "technique": "competition with immobilised ligand", "remaining binding": "99%"}
{"target": "Dual specificity protein kinase CLK2 (CLK2, Homo sapiens, UniProt P49760)", "effect on": "cell-free assay", "technique": "competition with immobilised ligand", "remaining binding": "94%"}
{"target": "Serine/threonine-protein kinase DCLK2 (DCLK2, Homo sapiens, UniProt Q8N568)", "effect on": "cell-free assay", "technique": "competition with immobilised ligand", "remaining binding": "96%"}
{"target": "Discoidin domain-containing receptor 2 (DDR2, Homo sapiens, UniProt Q16832)", "effect on": "cell-free assay", "technique": "competition with immobilised ligand", "remaining binding": "100%"}
{"target": "Receptor-type tyrosine-protein kinase FLT3 (FLT3, Homo sapiens, UniProt P36888, ITD)", "effect on": "cell-free assay", "technique": "competition with immobilised ligand", "remaining binding": "100%"}
{"target": "Vascular endothelial growth factor receptor 1 (FLT1, Homo sapiens, UniProt P17948)", "effect on": "cell-free assay", "technique": "competition with immobilised ligand", "remaining binding": "100%"}
{"target": "Leukocyte tyrosine kinase receptor (LTK, Homo sapiens, UniProt P29376)", "effect on": "cell-free assay", "technique": "competition with immobilised ligand", "remaining binding": "90%"}
{"target": "Tyrosine-protein kinase Blk (BLK, Homo sapiens, UniProt P51451)", "effect on": "cell-free assay", "technique": "competition with immobilised ligand", "remaining binding": "83%"}
{"target": "Tyrosine-protein kinase ABL1, phosphorylated (ABL1, Homo sapiens, UniProt P00519)", "effect on": "cell-free assay", "technique": "competition with immobilised ligand", "remaining binding": "100%"}
{"target": "Receptor-type tyrosine-protein kinase FLT3 (FLT3, Homo sapiens, UniProt P36888)", "effect on": "cell-free assay", "technique": "competition with immobilised ligand", "remaining binding": "90%"}
{"target": "cAMP-dependent protein kinase catalytic subunit PRKX (PRKX, Homo sapiens, UniProt P51817)", "effect on": "cell-free assay", "technique": "competition with immobilised ligand", "remaining binding": "100%"}
{"target": "Calcium/calmodulin-dependent protein kinase type 1 (CAMK1, Homo sapiens, UniProt Q14012)", "effect on": "cell-free assay", "technique": "competition with immobilised ligand", "remaining binding": "100%"}
{"target": "Serine/threonine-protein kinase Nek7 (NEK7, Homo sapiens, UniProt Q8TDX7)", "effect on": "cell-free assay", "technique": "competition with immobilised ligand", "remaining binding": "100%"}
{"target": "Serine/threonine-protein kinase Sgk2 (SGK2, Homo sapiens, UniProt Q9HBY8)", "effect on": "cell-free assay", "technique": "competition with immobilised ligand", "remaining binding": "100%"}
{"target": "Cyclin-dependent kinase 2 (CDK2, Homo sapiens, UniProt P24941)", "effect on": "cell-free assay", "technique": "competition with immobilised ligand", "remaining binding": "100%"}
{"target": "Serine/threonine-protein kinase WNK4 (WNK4, Homo sapiens, UniProt Q96J92)", "effect on": "cell-free assay", "technique": "competition with immobilised ligand", "remaining binding": "80%"}
{"target": "Serine/threonine-protein kinase SIK1 (SIK1, Homo sapiens, UniProt P57059)", "technique": "competition binding", "remaining binding": "86%"}
{"target": "Death-associated protein kinase 3 (DAPK3, Homo sapiens, UniProt O43293)", "effect on": "cell-free assay", "technique": "competition with immobilised ligand", "remaining binding": "92%"}
{"data": "Study 4", "cell line": "mouse MPNST tumor cells", "technique": "high-content nuclear imaging", "refers to": "cell number", "concentration": "10 µM", "time": "12 h", "notes": "mean of 2 replicates", "reference": "plate mean", "direction": "higher = more cells"}
{"SMILES": "CN(C)c1ccc(O)c2c1C[C@H]1C[C@H]3[C@H](N(C)C)C(=O)C(C(N)=O)=C(O)[C@@]3(O)C(=O)C1=C2O", "nuclei count": "-0.867 z-score"}
{"SMILES": "CC(C)(C)C(=O)Oc1ccc(S(=O)(=O)Nc2ccccc2C(=O)NCC(=O)O)cc1", "nuclei count": "0.505 z-score"}
{"SMILES": "O=C(O)c1cc(-c2ccc(F)cc2F)ccc1O", "nuclei count": "1.16 z-score"}
{"SMILES": "O=C(O[C@@H]1C[C@@H]2C[C@H]3C[C@H](C1)N2CC3=O)c1c[nH]c2ccccc12", "nuclei count": "-0.411 z-score and 0.52 z-score"}
{"SMILES": "Nc1nc(SCCc2ccc(S(=O)(=O)O)cc2)nc2c1ncn2[C@@H]1O[C@H](CO)[C@@H](O)[C@@H]1O", "nuclei count": "2.29 z-score"}
{"SMILES": "O=C(CCCCCCC(=O)NO)NO", "nuclei count": "1.13 z-score"}
{"SMILES": "CC(C)c1ccc(C(=O)N=C(N)N)cc1S(C)(=O)=O", "nuclei count": "1.69 z-score"}
{"SMILES": "CC(=O)N(C)c1cccc(-c2ccc3nnc(C)n3n2)c1", "nuclei count": "1.75 z-score"}
{"SMILES": "OC(c1cc(C(F)(F)F)nc2c(C(F)(F)F)cccc12)C1CCCCN1 (stereo not drawn)", "nuclei count": "-4.94 z-score and -5.94 z-score"}
{"SMILES": "N[C@@H]1CCCCN(c2c(F)cc3c(=O)c(C(=O)O)cn(C4CC4)c3c2Cl)C1", "nuclei count": "0.485 z-score"}
{"SMILES": "C[C@H](NC(=O)CCc1nc2ccccc2c(=O)[nH]1)c1ccccc1", "nuclei count": "0.662 z-score"}
{"SMILES": "CC(N)C12CC3CC(CC(C3)C1)C2 (stereo not drawn)", "nuclei count": "2.31 z-score"}
{"SMILES": "O=c1[nH]c(=O)n(C2CCCO2)cc1F (stereo not drawn)", "nuclei count": "1.36 z-score"}
{"SMILES": "CO[C@H]1CNC[C@@H](OCC2CCC(F)(F)CC2)[C@@H]1Nc1ncc(-c2cncc(C)c2)c2cc(C)c(=O)[nH]c12", "nuclei count": "4.44 z-score"}
{"SMILES": "COc1cc(OC2CCN(C)CC2)ccc1Nc1ncc2c(n1)n(C1CCCC1)c(=O)n2C", "nuclei count": "-4.15 z-score"}
{"SMILES": "CCCc1cc(C(N)=S)ccn1", "nuclei count": "-0.313 z-score"}
{"note": "Excerpt of the above (study 2):"}
{"concentration": "3800 nM", "viability": "101% and 109% and 78.1%"}
{"concentration": "88.1 nM", "viability": "90.7% and 111% and 93.7%"}
{"concentration": "5.15 nM", "viability": "80.7% and 134% and 104%"}
{"concentration": "34.2 nM", "viability": "100% and 94.2% and 76.2%"}
{"concentration": "2 nM", "viability": "145% and 92.5% and 108%"}
